Assay results gathered from unrelated publications.
Values joined by “and” are separate records of one study, mostly repeats; a detail may differ. Numbers after ± are the reported error. Converted amounts (≈) assume the structure as drawn.

For `O=C(O)c1cn(C2CC2)c2cc(N3CCNCC3)c(F)cc2c1=O`, the DNA perimeter was 6.76 µm and 6.73 µm and 6.93 µm (Bacillus subtilis; bacterial cytological profiling; ATCC 6633).
For `COC[C@H]1O[C@@H]2O[C@@H]3[C@@H](OC)[C@@H](OC)[C@@H](O[C@@H]4[C@@H](OC)[C@@H](OC)[C@@H](O[C@@H]5[C@@H](OC)[C@@H](OC)[C@@H](O[C@@H]6[C@@H](OC)[C@@H](OC)[C@@H](O[C@@H]7[C@@H](OC)[C@@H](OC)[C@@H](O[C@@H]1[C@@H](OC)[C@H]2OC)O[C@@H]7COC)O[C@@H]6COC)O[C@@H]5COC)O[C@@H]4COC)O[C@@H]3COC`, the inhibition was -9 ± 12% (Escherichia coli; LuxR reporter, antagonist; DH5α sensor strain; 100 µM, together with: OHHL 200 nM).
The EC50 of `CC(=O)Nc1cc(Oc2ccc3c(c2)CCN3C(=O)Nc2ccc(CN3CCN(C)CC3)c(C(F)(F)F)c2)ncn1` is reported as under 1.5 µM (hepatitis C virus; viral replication; Huh-Luc/neo-ET replicon cells).
The DNA width of `CN(C)[C@@H]1C(O)=C(C(N)=O)C(=O)[C@@]2(O)C(O)=C3C(=O)c4c(O)cccc4[C@@](C)(O)[C@H]3C[C@@H]12` is reported as 0.69 µm and 0.68 µm and 0.65 µm (Bacillus subtilis; bacterial cytological profiling; ATCC 6633).
For `CC(C)C[C@H](NC(=O)OCc1ccccc1)C(=O)N[C@H](C=O)C[C@@H]1CCCNC1=O`, the EC90 was 2.84 ± 0.04 µM (enterovirus A71; viral replication, RT-qPCR; RD; 72 h).
The anthelmintic rate of `CC(=Nc1ccc(N=Cc2cnccn2)cc1)N(C)C` is reported as 45 ± 9.5% (Necator americanus; hamster (Mesocricetus auratus), infected; oral, 50 mg/kg single dose, 2 h).
`COC(=O)[C@H](Cc1c[nH]c2ccccc12)NCc1cc2ccccc2nc1SC` gave a growth of 93.7% (Pseudomonas aeruginosa; 8 µg/mL, together with: pentamidine 50 µM; reference: control).
`COc1cccc2c1C(=O)c1c(O)c3c(c(O)c1C2=O)C[C@@](O)(C(=O)CO)C[C@@H]3O[C@H]1C[C@H](N)[C@H](O)[C@H](C)O1` has a cell area of 3.77 µm² and 3.11 µm² and 3.17 µm² (Bacillus subtilis; bacterial cytological profiling; ATCC 6633).
For `CCCCCCCCCC(=O)N[C@@H](Cc1c[nH]c2ccccc12)C(=O)N[C@H](CC(N)=O)C(=O)N[C@@H](CC(=O)O)C(=O)N[C@@H]1C(=O)NCC(=O)N[C@@H](CCCN)C(=O)N[C@@H](CC(=O)O)C(=O)N[C@H](C)C(=O)N[C@@H](CC(=O)O)C(=O)NCC(=O)N[C@H](CO)C(=O)N[C@@H]([C@H](C)CC(=O)O)C(=O)N[C@@H](CC(=O)c2ccccc2N)C(=O)O[C@@H]1C`, the MIC was 8 µg/mL (Staphylococcus aureus; SH1000; together with: phosphatidylglycerol, molar ratio 2).
Under “parasite clearance half-life”, `Cc1cc(Nc2ccc(S(F)(F)(F)(F)F)cc2)n2nc(C(C)(F)F)nc2n1` is recorded as 4.7 h (Plasmodium falciparum; microscopy; human malaria patients; 250 mg, median).
`O=c1oc2c(O)c(O)cc3c(=O)oc4c(O)c(O)cc1c4c23` — result for “initial rate of glycolytic pH drop”: 0.057 pH units/min (Streptococcus sobrinus; MIC, first 15 min, together with: glucose 1%).
`CCn1c(=O)c(-c2cc[nH]n2)cc2c(C)nc(N)nc21`: “hepatocyte oedema score” 1 (enterovirus A71; suckling mouse, EV71-infected, liver; 0.25 mg/kg; direction not given).
The MIC of `CC1(C)S[C@@H]2[C@H](NC(=O)[C@H](N)c3ccccc3)C(=O)N2[C@H]1C(=O)O` is reported as over 16 µg/mL (Stenotrophomonas maltophilia; broth microdilution; clinical isolate RKI-No 729/15).
`N=C(N)c1ccc(OCc2cccc(COc3ccc(C(=N)N)cc3)c2)cc1`: “MIC of compound in combination” 50 µg/mL (Escherichia coli; checkerboard; mcr-3 polymyxin-resistant; concentration not given, together with: rifampicin).
With `Cc1cc(OC(C)C)ccc1C(=O)C(C)(C)NC(=O)c1sccc1C` the inhibition was 84.5 ± 13.9% (Botrytis cinerea; appressorium formation; B05.10; 0.3 µg/mL).
`CN[C@H](CC(C)C)C(=O)N[C@H]1C(=O)N[C@@H](CC(N)=O)C(=O)N[C@H]2C(=O)N[C@H]3C(=O)N[C@H](C(=O)N[C@H](C(=O)O)c4cc(O)cc(O)c4-c4cc3ccc4O)[C@H](O)c3ccc(c(Cl)c3)Oc3cc2cc(c3O[C@@H]2O[C@H](CO)[C@@H](O)[C@H](O)[C@H]2O[C@H]2C[C@](C)(N)[C@H](O)[C@H](C)O2)Oc2ccc(cc2Cl)[C@H]1O` gave an MIC50 of 2 µg/mL (≈ 1.38 µM) (Staphylococcus epidermidis; methicillin-resistant, 10 isolates; serum 50%).
Under “initial rate of pH drop”, `[H]/N=C(\N/C(=N/[H])NCCCCCCNC(=N)NC(=N)Nc1ccc(Cl)cc1)Nc1ccc(Cl)cc1` is recorded as 0.018 pH unit/min (Streptococcus sobrinus; glycolytic acid production; MIC, first 15 min, 0.25 h, together with: glucose 1%).
For `CCc1nc2[nH]c(=O)n(O)c(=O)c2s1`, the growth inhibition was 6.7% (Amaranthus retroflexus; 750 g/ha, 21 days, pre-emergence, glasshouse pot).
`Oc1cc(O)c2c(c1)O[C@H](c1cc(O)c(O)c(O)c1)[C@@H](O)C2` — result for “inhibition zone diameter”: 13 ± 1.2 mm (Streptococcus sobrinus; 500 µg/disc).
For `Cc1nc2[nH]c(=O)n(O)c(=O)c2s1`, the growth inhibition was 0% (Amaranthus retroflexus; 750 g/ha, 21 days, post-emergence, glasshouse pot).
The DNA area of `CC1(C)S[C@@H]2[C@H](NC(=O)[C@H](N)c3ccccc3)C(=O)N2[C@H]1C(=O)O` is reported as 1.5 µm² and 1.44 µm² and 1.29 µm² (Bacillus subtilis; bacterial cytological profiling; ATCC 6633; concentration not given).
The EC50 of `CC[C@H](C)[C@H](N)C(=O)OC[C@H]1O[C@@](C#N)(c2ccc3c(N)ncnn23)[C@H](O)[C@@H]1O` is reported as 1.46 ± 0.219 µM (human respiratory syncytial virus; viral replication, viral protein ELISA; HEp-2, A2; 5 days).
For `CO[C@H]1/C=C/O[C@@]2(C)Oc3c(C)c(O)c4c(c3C2=O)C2=NC3(CCN(CC(C)C)CC3)NC2=C(NC(=O)/C(C)=C\C=C\[C@H](C)[C@H](O)[C@@H](C)[C@@H](O)[C@@H](C)[C@H](OC(C)=O)[C@@H]1C)C4=O`, the IC50 was 1.8 µM (Mycobacteroides abscessus; bacterial growth; subsp. abscessus clinical isolate; slow grower).
Under “initial rate of glycolytic pH drop”, `O=C1OC[C@H]2OC(O)[C@H](O)[C@@H](O)[C@@H]2OC(=O)c2cc(O)c(O)c(O)c2-c2c(O)c(O)c3oc(=O)c4c(c(O)c(O)c5oc(=O)c2c3c54)-c2c1cc(O)c(O)c2O` (mixture of isomers) is recorded as 0.033 pH units/min (Streptococcus sobrinus; MIC, first 15 min, together with: glucose 1%).
`[N-]=[N+]=N[C@]1(CO)O[C@@H](n2ccc(N)nc2=O)[C@@H](F)[C@@H]1O` has an EC50 of over 50 µM (human respiratory syncytial virus; viral replication; Huh7.5, A2 GFP reporter).
For `Cc1cc(/C=C/C#N)cc(C)c1Nc1ccnc(Nc2ccc(C#N)cc2)n1`, the EC50 was 0.0006 ± 4e-05 µM (HIV-1 NL4-3; viral replication, luciferase reporter; TZM-bl; 48 h).
The MFC of `N#CC(=C1C=CC(=NOC(=O)OCc2ccccc2)C=C1)c1ccccc1` is reported as 128 µg/mL (≈ 359 µM) (Pichia norvegensis; broth dilution; ATCC 96139; 48 h, 37 °C).
`CC(C)C(=O)OC[C@H]1O[C@@](C#N)(c2ccc3c(N)ncnn23)[C@H](O)[C@@H]1O` has an EC50 of 0.55 ± 0.048 µM (human respiratory syncytial virus; viral replication, viral protein ELISA; HEp-2, A2; 5 days).
`O=C1O[C@H]2[C@@H]3OC(=O)c4cc(O)c(O)c(O)c4-c4c(O)c(O)c5oc(=O)c6c(c(O)c(O)c7oc(=O)c4c5c76)-c4c(cc(O)c(O)c4O)C(=O)OC[C@H]3OC(O)[C@@H]2OC(=O)c2cc(O)c(O)c(O)c2-c2c1cc(O)c(O)c2O` (mixture of isomers) — result for “inhibition zone diameter”: 19 ± 1.1 mm (Streptococcus sobrinus; 500 µg/disc).
`CC(C)n1ncc2c(C(=O)NCC3(C)CNC3)cc(C3CC3)nc21` has a plaque area of 41.8% and 28.5% (enterovirus A71; Tainan/4643/1998; 0.3 µM).

For quick reference, copied from above:
The DNA area of `CC1(C)S[C@@H]2[C@H](NC(=O)[C@H](N)c3ccccc3)C(=O)N2[C@H]1C(=O)O` is reported as 1.5 µm² and 1.44 µm² and 1.29 µm² (Bacillus subtilis; bacterial cytological profiling; ATCC 6633; concentration not given).
The EC50 of `CC[C@H](C)[C@H](N)C(=O)OC[C@H]1O[C@@](C#N)(c2ccc3c(N)ncnn23)[C@H](O)[C@@H]1O` is reported as 1.46 ± 0.219 µM (human respiratory syncytial virus; viral replication, viral protein ELISA; HEp-2, A2; 5 days).
For `CO[C@H]1/C=C/O[C@@]2(C)Oc3c(C)c(O)c4c(c3C2=O)C2=NC3(CCN(CC(C)C)CC3)NC2=C(NC(=O)/C(C)=C\C=C\[C@H](C)[C@H](O)[C@@H](C)[C@@H](O)[C@@H](C)[C@H](OC(C)=O)[C@@H]1C)C4=O`, the IC50 was 1.8 µM (Mycobacteroides abscessus; bacterial growth; subsp. abscessus clinical isolate; slow grower).
Under “initial rate of glycolytic pH drop”, `O=C1OC[C@H]2OC(O)[C@H](O)[C@@H](O)[C@@H]2OC(=O)c2cc(O)c(O)c(O)c2-c2c(O)c(O)c3oc(=O)c4c(c(O)c(O)c5oc(=O)c2c3c54)-c2c1cc(O)c(O)c2O` (mixture of isomers) is recorded as 0.033 pH units/min (Streptococcus sobrinus; MIC, first 15 min, together with: glucose 1%).
